# Measurements gathered from unrelated publications.
# Every numbered part comes from another study and shows a few of its results, in no order.

# Study 1 — method: protein binding microarray; molecule type: double-stranded DNA, one strand shown; matrix: in vitro; tested at: not given; reference: not given; reading: higher = stronger binding
# Target: Histone acetyltransferase KAT6A, both winged helices, GST fusion (KAT6A, Homo sapiens, UniProt Q92794, residues 1-181)
# Setting: 8-mer, flanks averaged, mean of 2 arrays, mostly near background
# Residues (chain): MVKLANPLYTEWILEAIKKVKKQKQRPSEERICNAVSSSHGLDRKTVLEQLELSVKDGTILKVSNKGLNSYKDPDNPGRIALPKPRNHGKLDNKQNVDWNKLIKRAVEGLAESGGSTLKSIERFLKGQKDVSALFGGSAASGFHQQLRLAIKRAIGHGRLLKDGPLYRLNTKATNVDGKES
Strand,E-score
CCGAAGCA,-0.0191
CTGCTCTA,-0.128
GAAGCGCC,0.248
AACGTCAC,-0.0692
GGCAACCA,-0.0023
TCGTTACA,-0.0978
AACGTGCC,0.0498
ACTGTGGA,-0.107
CCGTTTTC,0.156
CAGACTGC,0.0241
CTGTACAA,0.0294
GCGCAGAC,0.229
GGTATCAA,-0.00568
ACGCCGAA,0.194
CTACCTAG,-0.261
CTATTTCC,-0.0912
TAAGAAGA,0.0319
GGATCGAC,-0.0871
GCCATTAC,0.0513

# Study 2 — method: RNA Bind-n-Seq; molecule type: RNA; matrix: in vitro; tested at: 365 nM; reference: no-protein control; reading: higher = stronger binding
# Target: RNA binding protein fox-1 homolog 2, RRM domain, GST-SBP tag (RBFOX2, Homo sapiens, UniProt O43251-10, residues 100-194)
# Setting: natural RNA segment, single round, ends assumed
# Shared flanks, not repeated: GGGAGUUCUACAGUCCGACGAUC … UGGAAUUCUCGGGUGCCAA
Strand,RBNS enrichment (R)
CCAGUGUGUCACCAGCCCUCAGCAGAAACCGAAAGAGAAAGAACGGAAACACGGAGUUUGGGCUCUGUUGGCUAAGGUGUAACACUUAAAGCAAUUUUCUCCCAUUGUGC,0.444
AUGGUCAAGCUUGUAAAUAACCUUUUUUACAUUUUAAUCUUUUCCAUUAAUUAAGAGGUUGAAAAGAAGUACAGUGUAAGAAAACCCAGCAUUUUAAUUAUUUGCAAAUU,0.525
AUGUAUAAAAUUUAAAAAAACAGACUCCCAUUUCUUAAAAACGGAUAAGUUUGAAAGGAAACUGCUAUUGAACUUAAGCAUCUCUAGCAGAGCAAUUUGAUCAGUAUAUA,0.415
CAACUUGAUGAAAAGAAAAUAAGAGACAUUGUAGUCCUUGCAGGGAUCUUGCUUAAAAUCAUUAAAAUGUUGCAGACAGUCCUAAGAGCCUGACUGGAAUGUAUUCAGUU,0.409
UGACCGAAGGCUGUGUGUGAAAGGGGAGAAAGACGAGACUUCCAGGCAGGGCUAUUCUUUUUAUUUCUGCGAGGGACAAGAGUCUGGCUUUUAAGCUGCAGCCCCGCUGU,0.822
UGAAGAGCUUCCCUCUUCCUACUGCAGCAUGAACUGCAAGCUCCCCUCAGCCCAUCUUGCUCCCUCUUCAGCCCGCUGAGGAGCUUUCUUGGGCUGCCCCCAUCUCUCCC,1.75
UUGGUAAUGGUGUUGUGGCCUCAGAUUUCUUCUAGUAUUUGCUUCUGAUGAAUGAUUAUGGUCUAUACAUAAAAAAGUAAGACUAAGUAUUGCUGAAUUUGCAGUUAUGU,1.12
UCUGGUUUGGAUUUUUUUUUCCUUCUUUGUUUUAACAAAUGGAUCCAGGAUGGAUAAAUCCACCGAGAUAAGGGUUUUGGUCACUGUCUCCACCUCAGUUCCUCAGGGCU,0.377
UCCCACAGGUGAGCAGGGCUCCUGUCCACCAGCACACUCAGUUCUCUUCCCUGCAGUGUUUUCAUUUUAUUUUAGCCAAACAUUUUGCCUGUUUUCUGUUUCAAACAUGA,2.3
CUGUCCAGAGGUUUUUAAAACUGGUGCAUUCACAGCAAAAAGGGAUUCUGUAGCUUUAACUUGUAAACCACAUCUUUUUUGCACUUUUUUUUAUAAAGCAAAAACGUGCC,1.16
AUUAUCACAGCGCAAUCAUUGUCUACACAACAUGUACUCUCAACGCCUGGGUUACAUAGGAAAUGCACCCUGAGGUUUUAAUAAAAGCCCCUAUGGCUAUAACUUUAAAU,0.525
CUUUGCUGAAUUCUAACAUUAAAUCACAGCCCAAAAUUUGAUGGACUAAUUAUUAUUUUAAAAUAUAUGAAGACAAUAAUUCUACAUGUUGUCUUAAGAUGGAAAUACAG,0.622

# Study 3 — method: protein-binding microarray; molecule type: double-stranded DNA, one strand shown; matrix: in vitro; tested at: 940 nM top; setting: 60-bp whole probe; with: salmon DNA 0.4 mg/ml; reference: random background probes; reading: higher = stronger binding; shared flanks, not repeated: GCCTAGCAC … GTCTTGATTCGCTTGACGCTGCTG
# Target: Interferon regulatory factor 5, full length, phosphomimetic (IRF5, Homo sapiens, UniProt Q13568-2, residues 1-514, S451D/S453D/S456D/S462D)
Strand,fitted relative affinity
TTAGGTTTCGACGTTCGGTTAGTGCTA,8.54 z-score
TAAGGTTTCGACACTGGGTTAGTGCTA,5.58 z-score
CTCTAACTCAAGATTCCTCTCGTGCTA,0.639 z-score
TTAGGACTGGGTATCGCTTAGTGCTAG,0.975 z-score
TCATCTGTCATTTTCTCACTGTGCTAG,1.71 z-score
TTAGGACTGGACTTTCGGTTTGTGCTA,2.36 z-score
TCACATTTTTTTTTTCTACTGTGCTAG,2.43 z-score
TTAGGTCTCTTTATCCTTTAGTGCTAG,1.13 z-score
TCAGTTCTCCCTTTCAGTTTGTGCTAG,1.6 z-score
TCATCTCTGGTTCTTGCACTGTGCTAG,1.09 z-score
GACAATTTCAGTTCCGAGACGTGCTAG,1.13 z-score
GACGAACTGGGACTGGGGACGTGCTAG,-0.271 z-score
TTAGATTTCGGGTTTCTATTAGTGCTA,2.56 z-score
AACTTTTTTTAATTGAGAAGGTGCTAG,0.139 z-score
TGGATACTTTGCTGAACATCGTGCTAG,-0.151 z-score
GACGGTCTCCTTATCCTGTCGTGCTAG,1.36 z-score
GACGGTAGCGACACTGGGGACGTGCTA,-0.0376 z-score
TTAGTACTGAGTATCGATTAGTGCTAG,4.38 z-score
TTAGGACTGCTTATCCTTTAGTGCTAG,-0.398 z-score
TCAGTTTCCATTTTCTGACTGTGCTAG,2.92 z-score
CTGTCTGAGGACACCCTGGCGTGCTAG,-0.119 z-score
GGACGGCAGTGCACACAGTGGTGCTAG,-0.532 z-score
TTACATTTCAGTTTCGATTAGTGCTAG,9.61 z-score
TTAGCTCTCAGTCTCGATTAGTGCTAG,3.71 z-score
GCCGAACTGGGGTATCGAGACGTGCTA,0.788 z-score

# Study 4 — method: competition protein-binding microarray; molecule type: double-stranded DNA, one strand shown; matrix: in vitro; tested at: 2 µM; with: Pho4 competitor, 0.05 µM; reading: higher = stronger binding; shared flanks, not repeated: … GTCTTGATTCGCTTGACGCTGCTG
# Target: Centromere-binding protein 1, full length, His-tagged (CBF1, Saccharomyces cerevisiae, UniProt P17106, residues 1-351)
# Sequence of UniProt P17106 (whole entry, looked up): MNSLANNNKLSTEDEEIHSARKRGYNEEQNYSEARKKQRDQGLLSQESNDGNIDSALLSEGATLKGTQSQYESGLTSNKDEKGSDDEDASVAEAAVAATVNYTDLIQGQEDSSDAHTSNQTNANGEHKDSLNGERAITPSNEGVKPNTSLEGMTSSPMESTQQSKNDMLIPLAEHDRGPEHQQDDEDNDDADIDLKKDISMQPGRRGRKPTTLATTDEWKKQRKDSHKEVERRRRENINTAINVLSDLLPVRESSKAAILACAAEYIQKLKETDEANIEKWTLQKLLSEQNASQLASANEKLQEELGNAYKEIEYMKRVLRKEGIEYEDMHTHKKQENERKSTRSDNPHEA
# Setting: whole 60-bp probe, lowest competitor level
Strand,fluorescence intensity [a.u.]
CGTCCTAGCGATTGATGTGTGGGTGCCATGAGGAAG,69.4
TTGAAAGCTGGTACGACCGTGATGGGCGGCGGTGTT,55
AAATTACTAAGTTGTCACCTCACTTACCCCGTATGA,69.3
CCTCCTCTTTTTTTTCACGTGCTTTGCTGATGTAAG,1350
AAATTACTAAGTTGACCCGTGGGTGACGCCGTATGA,80.3
CTAACCGGCCACCGTCACATGATTCGATTGTGTAGC,942
AAAGCGGTAATTTGTTTAGTGGGTGCAGATATCTAT,77.4
GTCTTGTCTCATTGGTTAGTGGGTGTCCCCACTTCA,84
CGTCCTAGTGATTGTGCCGTGGGTGCCATGAGGAAG,82.3
TGCTGCGGACAGTTCTCCGTGACGGGATCGCGCAAT,64.2
CATCGTACAGGGGTTCATGTGCTGGTGCAGTAATTC,86.5
TAATTTCGAAGTACCTATATTTTTAACCAATCTCGG,96.2
TGCGCAACAACTTGAGTCGTGGGTGTATGTCTAGAA,67
TATCTAGGATGCTGCACCGTGGCAACATTCCCCTCG,65.4
CTAACGAAGGTTTGCCATGTGGGTGACAAGCCAAGT,96.8
AATCTCAGGTTTCGTCACGTTCTGGTGATGACTGTA,303
CTTCTGTAAATTTGTCACTAAACTTGACGCGCCCCG,94.6
CATACCCAACCTTGGTTAGTGGGTGAAGATATTTGT,59.6
CATACCCAACCTTGTCACAGAACTTAAGATATTTGT,77.2
CTTTCCCGATCTTGGCATGTGGGTGTAGCACATTTG,70.9
TGAACAGAAACAAATCACATGTTTCCTTGGCAGAAT,867
TATGCTGTGTTTGACCAGGCGAACAACATTGAGAGA,78.6
CTTTCCCGATCTTTACACGTGTTTTTAGCACATTTG,1250
CATGGAAAAGCAAGTGCCGTGCCAGTTCCAACTAAG,74.7
CGTCCTAGCGATTGATCCGTGGGTGCCATGAGGAAG,74.8

# Repeated from above (study 1):
Strand,E-score
TCGTTACA,-0.0978
CTGTACAA,0.0294
AACGTGCC,0.0498
GAAGCGCC,0.248
CTATTTCC,-0.0912
GGTATCAA,-0.00568
CTACCTAG,-0.261
CCGTTTTC,0.156
CCGAAGCA,-0.0191
